Measured values collected from several papers.
Protocols differ between the studies behind these lines. Numbers after ± are the reported error. In brackets after ≈: the same amount, converted by molar mass.
Sequence of UniProt P06493 (whole entry, looked up): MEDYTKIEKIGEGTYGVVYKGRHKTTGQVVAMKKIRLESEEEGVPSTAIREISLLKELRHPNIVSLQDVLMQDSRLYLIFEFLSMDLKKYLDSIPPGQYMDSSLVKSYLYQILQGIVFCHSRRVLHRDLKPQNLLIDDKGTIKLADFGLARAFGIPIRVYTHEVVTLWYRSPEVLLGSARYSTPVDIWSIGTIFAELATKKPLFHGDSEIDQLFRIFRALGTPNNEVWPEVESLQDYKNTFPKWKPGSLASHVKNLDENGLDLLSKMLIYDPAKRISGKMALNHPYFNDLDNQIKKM

`CCCCCCCCC(=O)NCc1ccc(O)c(OC)c1` gave an IC50 of 41.6 ng/mL (≈ 0.142 µM) (mAb 4-AT4; antibody binding, indirect competitive ELISA; together with: coating antigen hapten 3-OVA).
The viability of `COC(=O)C1=CO[C@@H](OC(C)=O)[C@@H]2C(Cn3cc(CON4C(=O)c5ccccc5C4=O)nn3)=CC[C@H]12` is reported as 71.6 ± 0.1% (SK-N-SH; neuroprotection, MTT; 0.15 µM, 24 h, together with: 250 µM H2O2).
For `Cc1cc(C)c(N2CCN(c3c(C)cc(C)cc3C)C2=[Se])c(C)c1.[Cl][Au]`, the resistance factor was 1.9 (LoVo MDR; MTT; reference: LoVo MDR over LoVo).
With `CC(C)CC(O)(CC(C)C)c1cn(C(=O)N2CCCC2)nn1` the SILAC ratio was 2.6 ± 0.15 (mouse T-cells; N-terminal labeled proteins, N-terminal enrichment proteomics, item: FDX1; 1 nM, 6 h; reference: DMSO).
The tissue uptake of `N=C(N)NCCC[C@@H]1NC(=O)[C@H](CCCCNC(=O)CNC(=O)CNC(=O)CNC(=O)CC[C@H](NC(=O)CCOCCOCCOCCOCCNC(=O)CC[C@H](NC(=O)CN2CCN(CC(=O)O)CCN(CC(=O)O)CCN(CC(=O)O)CC2)C(=O)NCCOCCOCCOCCOCCC(=O)N[C@@H](CCC(=O)NCC(=O)NCC(=O)NCC(=O)NCCCC[C@@H]2NC(=O)[C@@H](Cc3ccccc3)NC(=O)[C@H](CC(=O)O)NC(=O)CNC(=O)[C@H](CCCNC(=N)N)NC2=O)C(=O)NCC(=O)NCC(=O)NCC(=O)NCCCC[C@@H]2NC(=O)[C@@H](Cc3ccccc3)NC(=O)[C@H](CC(=O)O)NC(=O)CNC(=O)[C@H](CCCNC(=N)N)NC2=O)C(=O)NCC(=O)NCC(=O)NCC(=O)NCCCC[C@@H]2NC(=O)[C@@H](Cc3ccccc3)NC(=O)[C@H](CC(=O)O)NC(=O)CNC(=O)[C@H](CCCNC(=N)N)NC2=O)NC(=O)[C@@H](Cc2ccccc2)NC(=O)[C@H](CC(=O)O)NC(=O)CNC1=O` [indium-111 labelled] is reported as 0.3 ± 0.03 %ID/g (female athymic nude mice, lungs; intravenous, 3 µCi, 72 h, U-87 MG glioma xenograft).
With `Cc1cccc(Nc2c3c(nc4ccccc24)CCCC3)n1` the viability was 70.3 ± 4.51% (SH-SY5Y; MTT; 50 µM, 1 h pretreatment, 10% FBS, together with: H2O2).
For `COC(=O)C1=CO[C@@H](OC(C)=O)[C@@H]2C(Cn3cc(COCc4ccccc4)nn3)=CC[C@H]12`, the viability was 79.7 ± 0.4% (SK-N-SH; neuroprotection, MTT; 0.075 µM, 24 h, together with: 250 µM H2O2).
`CC=C(C)C(=O)OC1C2C3(C)CCC(OC4CC(OC)C(OC5OC(C)C(O)C(OC)C5O)C(C)O4)CC3CCC23OC32CCC(C(C)=O)C2(C)C1OC(C)=O` (stereo not shown) — result for “fold reversal of IC50”: 4 (MDA435/LCC6-MDR1; cell growth, MDR reversal, SRB; 10 µM, together with: paclitaxel; reference: paclitaxel alone over combination).
For `N=C(N)NCCC[C@@H]1NC(=O)[C@H](CCCCNC(=O)CC[C@H](NC(=O)CCOCCOCCOCCOCCNC(=O)CC[C@H](NC(=O)CN2CCN(CC(=O)O)CCN(CC(=O)O)CCN(CC(=O)O)CC2)C(=O)NCCOCCOCCOCCOCCC(=O)N[C@@H](CCC(=O)NCCCC[C@@H]2NC(=O)[C@@H](Cc3ccccc3)NC(=O)[C@H](CC(=O)O)NC(=O)CNC(=O)[C@H](CCCNC(=N)N)NC2=O)C(=O)NCCCC[C@@H]2NC(=O)[C@@H](Cc3ccccc3)NC(=O)[C@H](CC(=O)O)NC(=O)CNC(=O)[C@H](CCCNC(=N)N)NC2=O)C(=O)NCCCC[C@@H]2NC(=O)[C@@H](Cc3ccccc3)NC(=O)[C@H](CC(=O)O)NC(=O)CNC(=O)[C@H](CCCNC(=N)N)NC2=O)NC(=O)[C@@H](Cc2ccccc2)NC(=O)[C@H](CC(=O)O)NC(=O)CNC1=O` [indium-111 labelled], the tissue uptake was 0.39 ± 0.12 %ID/g (female athymic nude mice, eyes; intravenous, 3 µCi, 24 h, U-87 MG glioma xenograft).
The viability of `COC(=O)C1=CO[C@@H](OC(C)=O)[C@@H]2C(Cn3cc(CCO[Si](c4ccccc4)(c4ccccc4)C(C)(C)C)nn3)=CC[C@H]12` is reported as 48.5 ± 0.8% (SK-N-SH; neuroprotection, MTT; 0.15 µM, 24 h, together with: 250 µM H2O2).
`CC(=O)NC(Cc1ccc(Br)c(Cl)c1)C(=O)N[C@@H](C)C(=O)N1CCC[C@H]1C(=O)N1CCC[C@H]1C(=O)N[C@@H](CCC(=O)O)C(=O)N[C@@H](Cc1c[nH]cn1)C(=O)N[C@@H](CO)C(=O)N[C@H](C(=O)N[C@@H](C)C(N)=O)[C@@H](C)OP(=O)(O)O` (stereo partly shown) gave an inhibition of 0.77% (Cyclin-dependent kinase 1, with cyclin E1 (CDK1, Homo sapiens, UniProt P06493); enzyme activity, inhibitor; 10 µM).
With `CCCCCCCCC[P+](c1ccccc1)(c1ccccc1)c1ccccc1` the GI50 was 647 nM (SK-OV-3; cell growth or viability, MTT; 72 h).
`CCCCCCCCCCCCCC(=O)NCC(=O)N[C@@H](CCCNC(=N)N)C(=O)N[C@@H](Cc1c[nH]c2ccccc12)C(=O)N[C@@H](CCCCN)C(=O)N[C@H](C(=O)N[C@@H](Cc1ccccc1)C(=O)N[C@@H](CCCCN)C(=O)N[C@@H](CCCCN)C(=O)N[C@H](C(=O)N[C@@H](CCC(=O)O)C(=O)N[C@@H](CCCCN)C(=O)N[C@H](C(=O)NCC(=O)N[C@@H](CCC(N)=O)C(=O)N[C@@H](CC(N)=O)C(=O)N[C@H](C(=O)N[C@@H](CCCNC(=N)N)C(=O)N[C@@H](CC(=O)O)C(=O)NCC(=O)N[C@H](C(=O)N[C@H](C(=O)N[C@@H](CCCCN)C(=O)N[C@@H](C)C(=O)NCC(=O)N1CCC[C@H]1C(=O)N[C@@H](C)C(=O)N[C@H](C(=O)N[C@@H](C)C(=O)N[C@H](C(=O)N[C@H](C(=O)NCC(=O)N[C@@H](CCC(N)=O)C(=O)N[C@@H](C)C(=O)N[C@@H](C)C(=O)N[C@H](C(=O)N[C@H](C(N)=O)[C@@H](C)CC)[C@@H](C)O)C(C)C)C(C)C)C(C)C)C(C)C)[C@@H](C)CC)[C@@H](C)CC)C(C)C)[C@@H](C)CC)[C@@H](C)CC` — result for “cleaved over total caspase ratio”: “increased” (Jurkat; western blot, item: caspase 9; 3 or 6 µM, 16 h).
Under “survival and regrowth”, `CN1CCN(C(c2ccccn2)c2c(-c3ccccc3)n(O)c3ccccc23)CC1` (stereo not shown) is recorded as “no effect” (wild-type and BAX/BAK double-knockout BMK; crystal violet; concentration not given, 24 h, regrowth 3 days).
With `CCCC[C@H](NC(=O)CNC(=O)CNC(=O)c1ccc(NN)nc1)C(=O)N[C@H]1CC(=O)NCCCC[C@@H](C(N)=O)NC(=O)[C@H](Cc2c[nH]c3ccccc23)NC(=O)[C@H](CCCNC(=N)N)NC(=O)[C@@H](Cc2ccccc2)NC(=O)[C@H](Cc2c[nH]cn2)NC1=O` [technetium-99m labelled] the tissue uptake was 11.2 ± 1.68 %ID/g (C57 mouse, B16/F1 melanoma-bearing, kidneys; intravenous, 0.5 h).
`COC(=O)C1=CO[C@@H](OC(C)=O)[C@@H]2C(Cn3cc(CN(C)Cc4ccccc4)nn3)=CC[C@H]12` has a viability of 50.8% (SK-N-SH; neuroprotection, MTT; 0.075 µM, 24 h, together with: 250 µM H2O2).
With `CSCC[C@H](NC(=O)[C@H](CC(C)C)NC(=O)[C@H](Cc1c[nH]cn1)NC(=O)CNC(=O)[C@@H](NC(=O)[C@H](C)NC(=O)[C@H](Cc1c[nH]c2ccccc12)NC(=O)[C@H](CCC(N)=O)NC(=O)CCCCCNC(=O)CCN(CCNC(=O)c1ccc(F)cc1)CCC(=O)NCCCC[C@@H]1NC(=O)[C@@H](Cc2ccc(O)cc2)NC(=O)[C@H](CC(=O)O)NC(=O)CNC(=O)[C@H](CCCNC(=N)N)NC1=O)C(C)C)C(N)=O` [fluorine-18 labelled] the cellular uptake was 4.68 ± 0.26% (PC-3; 60 min, 37 °C; reference: added radioactivity).
`COc1cc(C(=O)NCCOCCOCCOCCNC(=O)c2ccc([18F])nc2)ccc1NC(=O)C1NC(CC(C)(C)C)C(C#N)(c2ccc(Cl)cc2F)C1c1cccc(Cl)c1F` (stereo not shown) has an uptake of ~70% (HepG2; reference: added dose).
For `O=C(O)CCC(NP(=O)(O)OCCC[C@@H](NC(=O)CCC(NC(=O)c1ccc([18F])cc1)C(=O)O)C(=O)O)C(=O)O` (stereo partly shown), the cell uptake was 0.7 ± 0.45% (CWR22Rv1; 2 h).

Repeated from above:
With `CCCCCCCCC[P+](c1ccccc1)(c1ccccc1)c1ccccc1` the GI50 was 647 nM (SK-OV-3; cell growth or viability, MTT; 72 h).
`CCCCCCCCCCCCCC(=O)NCC(=O)N[C@@H](CCCNC(=N)N)C(=O)N[C@@H](Cc1c[nH]c2ccccc12)C(=O)N[C@@H](CCCCN)C(=O)N[C@H](C(=O)N[C@@H](Cc1ccccc1)C(=O)N[C@@H](CCCCN)C(=O)N[C@@H](CCCCN)C(=O)N[C@H](C(=O)N[C@@H](CCC(=O)O)C(=O)N[C@@H](CCCCN)C(=O)N[C@H](C(=O)NCC(=O)N[C@@H](CCC(N)=O)C(=O)N[C@@H](CC(N)=O)C(=O)N[C@H](C(=O)N[C@@H](CCCNC(=N)N)C(=O)N[C@@H](CC(=O)O)C(=O)NCC(=O)N[C@H](C(=O)N[C@H](C(=O)N[C@@H](CCCCN)C(=O)N[C@@H](C)C(=O)NCC(=O)N1CCC[C@H]1C(=O)N[C@@H](C)C(=O)N[C@H](C(=O)N[C@@H](C)C(=O)N[C@H](C(=O)N[C@H](C(=O)NCC(=O)N[C@@H](CCC(N)=O)C(=O)N[C@@H](C)C(=O)N[C@@H](C)C(=O)N[C@H](C(=O)N[C@H](C(N)=O)[C@@H](C)CC)[C@@H](C)O)C(C)C)C(C)C)C(C)C)C(C)C)[C@@H](C)CC)[C@@H](C)CC)C(C)C)[C@@H](C)CC)[C@@H](C)CC` — result for “cleaved over total caspase ratio”: “increased” (Jurkat; western blot, item: caspase 9; 3 or 6 µM, 16 h).
Under “survival and regrowth”, `CN1CCN(C(c2ccccn2)c2c(-c3ccccc3)n(O)c3ccccc23)CC1` (stereo not shown) is recorded as “no effect” (wild-type and BAX/BAK double-knockout BMK; crystal violet; concentration not given, 24 h, regrowth 3 days).
